Assay results pooled from the literature.
Protocols differ between the studies behind these lines. Numbers after ± are the reported error.

CC[C@H](C)[C@@H]1NC(=O)[C@H](Cc2ccc(O)cc2)NC(=O)CCCSC[C@@H](C(=O)N(CC(=O)N[C@@H](CC(C)C)C(=O)NCC(N)=O)Cc2ccc(F)cc2)NC(=O)[C@H](CC(N)=O)NC(=O)[C@H](CCC(N)=O)NC1=O  severe adverse events (human; intranasal, 200 µg single dose): 0%
COC(=O)[C@@]1(C(C)C)C=C(C(=O)Nc2cccc(C(=O)Nc3ccc(Nc4nccc(-c5cccnc5)n4)c(C)c3)c2)C(=O)CC1  compound remaining (rat, plasma; 10 µM, 15 min): 100%
COc1ccccc1NC(=O)OC1C(C)C(OC)C=COC2(C)Oc3c(C)c(O)c4c(c3C2=O)C2=NC3(CCN(CC(C)C)CC3)NC2=C(NC(=O)C(C)=CC=CC(C)C(O)C(C)C(O)C1C)C4=O (stereo not drawn)  elimination half-life (CD-1 mouse female, plasma; intravenous, 5 mg/kg): 14.1 h
CN1CCCNC(=O)c2cccc(c2)C(=O)NCCCN(C)CCCNc2cccc3c2C(=O)c2cccc(c2C3=O)NCCC1  BUN (nude mice, serum; dose not given, 10 days): 15.4 ± 1.5 mg/dL
CC(C)c1cnc(-c2cc(Cl)ccc2F)cc1Nc1ccncc1C(=O)NC(CO)CO  unbound AUC(0-tau) (female C57BL/6 mice, plasma; oral, 30 mg/kg twice daily, day 1, MC-38 tumour-bearing, tau 8 h): 0.343 µM·h
CCCC[C@H](OC(C)=O)c1ccccc1C(=O)O  MRT(0-last) (beagle dog, both sexes, whole blood; intravenous, 0.5 mg/kg, single dose): 1.2 ± 1 h
CN(Cc1ccccc1)C(=O)CN1CCN(CC(=O)[O-])CCN(Cc2cccc(C(=O)[O-])n2)CC1.[44Sc+3]  tracer uptake (mouse, spleen; intravenous, 1 h): 0.47 %ID/g
C/C(N)=N/C(=N\S(=O)(=O)c1ccc(C(F)(F)F)cc1)N1C[C@H](c2ccccc2)C(c2ccc(Cl)cc2)=N1  Cmax (C57BL/6 mouse, kidney; intravenous, 10 mg/kg): 30800 ng/mL
O=C([O-])CN1CCN(CC(=O)[O-])CCN(Cc2cccc(C(=O)[O-])n2)CC1.[44Sc+3]  tracer uptake (mouse, spleen; intravenous, 1 h): 0.69 %ID/g
CN([O-])C(=O)CN1CCN(CC(=O)N(C)[O-])CCN(Cc2ccccn2)CC1.[89Zr+4]  intact complex (radio-TLC; human serum; 3 days, run 1): 92.7%
Cc1ncsc1-c1ccc(CNC(=O)[C@@H]2C[C@@H](O)CN2C(=O)[C@@H](NC(=O)COCC(C)(COCCOCCOCCNC(=O)C[C@@H]2N=C(c3ccc(Cl)cc3)c3c(sc(C)c3C)-n3c(C)nnc32)COCCOCCOCCNC(=O)C[C@@H]2N=C(c3ccc(Cl)cc3)c3c(sc(C)c3C)-n3c(C)nnc32)C(C)(C)C)cc1  concentration (male C57BL/6 mouse, plasma; intravenous, 5 mg/kg, 8 h, single dose): 414 ng/mL
CN(Cc1ccccc1)C(=O)CN1CCN(CC(=O)[O-])CCN(CC(=O)N(C)Cc2ccccc2)CC1.[44Sc+3]  tracer uptake (mouse, muscle; intravenous, 1 h): 0.17 %ID/g
C=C(NC(=O)c1csc(-c2nc3c(cc2O)-c2nc(cs2)C(=O)NC(C(C)O)C(=O)NC(=C(C)OC)c2nc(cs2)C(=O)NC2c4nc(cs4)C(=O)NC(COC(=O)c4c5c6c(cccc6n4O)COC(=O)C(OC4CC(C)(O)C(N(C)C)C(C)O4)C2OC5)c2nc-3cs2)n1)C(N)=O (stereo not drawn)  half-life (ICR mice, Streptococcus pneumoniae ATCC 49169 infected, immunocompromised, blood; intravenous, 16 mg/kg/day once daily): 6.31 h
CN(Cc1ccccc1)C(=O)CN1CCN(CC(=O)[O-])CCN(CC(=O)[O-])CC1.[18F-].[Sc+3]  tracer uptake (mouse, stomach; intravenous, 1 h): 0.1 %ID/g
O=C(Nc1cnccc1-c1ccc([18F])nc1)c1ccnc(NC(=O)C2CC2)c1  SUV (FVB/NJ mice, both sexes, brain; intravenous, 20 min, median, no P-gp inhibitor): 0.085

Excerpt of the above:
CC[C@H](C)[C@@H]1NC(=O)[C@H](Cc2ccc(O)cc2)NC(=O)CCCSC[C@@H](C(=O)N(CC(=O)N[C@@H](CC(C)C)C(=O)NCC(N)=O)Cc2ccc(F)cc2)NC(=O)[C@H](CC(N)=O)NC(=O)[C@H](CCC(N)=O)NC1=O  severe adverse events (human; intranasal, 200 µg single dose): 0%
